# Measurements collected from several papers.
# Every numbered part comes from another study and shows a few of its results, in no order. “And” joins repeats or separate records; there may be more than shown.
# UniProt P21709, sequence (whole entry, looked up): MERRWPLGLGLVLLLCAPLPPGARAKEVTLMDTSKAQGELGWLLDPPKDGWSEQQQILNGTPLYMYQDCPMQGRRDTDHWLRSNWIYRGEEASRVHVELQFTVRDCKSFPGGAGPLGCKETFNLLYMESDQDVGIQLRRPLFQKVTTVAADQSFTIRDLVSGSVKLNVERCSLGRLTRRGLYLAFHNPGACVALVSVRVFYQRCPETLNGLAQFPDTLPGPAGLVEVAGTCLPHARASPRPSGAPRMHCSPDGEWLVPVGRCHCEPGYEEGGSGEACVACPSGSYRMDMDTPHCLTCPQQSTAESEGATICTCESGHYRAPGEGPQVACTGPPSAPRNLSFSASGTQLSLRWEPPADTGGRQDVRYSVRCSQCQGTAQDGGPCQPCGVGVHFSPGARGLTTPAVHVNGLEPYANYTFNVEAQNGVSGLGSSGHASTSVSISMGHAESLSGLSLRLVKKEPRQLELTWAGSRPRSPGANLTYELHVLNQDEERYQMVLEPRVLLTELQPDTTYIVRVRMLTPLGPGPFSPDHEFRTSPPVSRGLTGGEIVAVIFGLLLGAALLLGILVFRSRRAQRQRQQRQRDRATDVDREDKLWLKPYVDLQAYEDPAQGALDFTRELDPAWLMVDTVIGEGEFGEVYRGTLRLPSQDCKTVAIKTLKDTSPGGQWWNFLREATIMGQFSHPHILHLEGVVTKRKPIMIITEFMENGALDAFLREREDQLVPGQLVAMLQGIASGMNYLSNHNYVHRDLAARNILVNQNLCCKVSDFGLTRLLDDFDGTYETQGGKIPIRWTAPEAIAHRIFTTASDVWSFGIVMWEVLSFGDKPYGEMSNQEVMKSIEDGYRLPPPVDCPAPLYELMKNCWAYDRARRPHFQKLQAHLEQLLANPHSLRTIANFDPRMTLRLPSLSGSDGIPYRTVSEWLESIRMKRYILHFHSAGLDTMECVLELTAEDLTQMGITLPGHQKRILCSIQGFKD
# UniProt P08069, sequence (whole entry, looked up): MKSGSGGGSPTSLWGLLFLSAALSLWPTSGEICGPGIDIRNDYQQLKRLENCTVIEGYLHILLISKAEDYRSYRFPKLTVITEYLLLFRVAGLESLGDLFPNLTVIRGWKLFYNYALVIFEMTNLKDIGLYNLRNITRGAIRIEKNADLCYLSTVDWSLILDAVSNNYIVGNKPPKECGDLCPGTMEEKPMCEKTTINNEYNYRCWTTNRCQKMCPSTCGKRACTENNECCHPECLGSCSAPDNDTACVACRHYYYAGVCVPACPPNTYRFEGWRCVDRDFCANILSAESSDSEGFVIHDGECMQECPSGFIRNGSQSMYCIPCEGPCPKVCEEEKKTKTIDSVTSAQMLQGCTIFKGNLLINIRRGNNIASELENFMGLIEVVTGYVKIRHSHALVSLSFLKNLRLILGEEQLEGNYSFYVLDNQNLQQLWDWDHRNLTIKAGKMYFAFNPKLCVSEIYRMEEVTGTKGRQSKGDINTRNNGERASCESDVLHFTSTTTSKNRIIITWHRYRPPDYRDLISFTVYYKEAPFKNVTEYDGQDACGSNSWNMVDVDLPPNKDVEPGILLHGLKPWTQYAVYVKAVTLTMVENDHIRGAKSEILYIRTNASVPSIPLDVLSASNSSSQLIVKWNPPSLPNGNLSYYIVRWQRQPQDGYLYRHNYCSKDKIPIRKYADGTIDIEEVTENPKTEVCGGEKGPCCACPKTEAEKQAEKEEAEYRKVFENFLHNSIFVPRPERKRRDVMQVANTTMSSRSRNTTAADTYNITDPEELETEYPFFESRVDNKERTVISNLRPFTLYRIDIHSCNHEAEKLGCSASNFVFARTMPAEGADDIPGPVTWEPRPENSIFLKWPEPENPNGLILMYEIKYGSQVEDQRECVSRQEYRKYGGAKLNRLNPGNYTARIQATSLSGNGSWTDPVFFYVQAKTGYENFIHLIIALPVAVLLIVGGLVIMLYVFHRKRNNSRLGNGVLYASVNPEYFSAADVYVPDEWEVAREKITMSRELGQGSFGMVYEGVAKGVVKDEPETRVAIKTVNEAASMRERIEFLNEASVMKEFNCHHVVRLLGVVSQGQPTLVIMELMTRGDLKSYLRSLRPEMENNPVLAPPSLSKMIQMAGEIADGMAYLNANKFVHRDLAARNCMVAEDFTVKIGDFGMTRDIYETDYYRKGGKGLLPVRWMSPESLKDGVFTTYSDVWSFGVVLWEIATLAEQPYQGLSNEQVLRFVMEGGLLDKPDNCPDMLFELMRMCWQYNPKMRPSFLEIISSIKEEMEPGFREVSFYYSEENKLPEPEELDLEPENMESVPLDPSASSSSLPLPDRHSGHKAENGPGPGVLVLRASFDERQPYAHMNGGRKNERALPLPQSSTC
# UniProt P21802, sequence (whole entry, looked up): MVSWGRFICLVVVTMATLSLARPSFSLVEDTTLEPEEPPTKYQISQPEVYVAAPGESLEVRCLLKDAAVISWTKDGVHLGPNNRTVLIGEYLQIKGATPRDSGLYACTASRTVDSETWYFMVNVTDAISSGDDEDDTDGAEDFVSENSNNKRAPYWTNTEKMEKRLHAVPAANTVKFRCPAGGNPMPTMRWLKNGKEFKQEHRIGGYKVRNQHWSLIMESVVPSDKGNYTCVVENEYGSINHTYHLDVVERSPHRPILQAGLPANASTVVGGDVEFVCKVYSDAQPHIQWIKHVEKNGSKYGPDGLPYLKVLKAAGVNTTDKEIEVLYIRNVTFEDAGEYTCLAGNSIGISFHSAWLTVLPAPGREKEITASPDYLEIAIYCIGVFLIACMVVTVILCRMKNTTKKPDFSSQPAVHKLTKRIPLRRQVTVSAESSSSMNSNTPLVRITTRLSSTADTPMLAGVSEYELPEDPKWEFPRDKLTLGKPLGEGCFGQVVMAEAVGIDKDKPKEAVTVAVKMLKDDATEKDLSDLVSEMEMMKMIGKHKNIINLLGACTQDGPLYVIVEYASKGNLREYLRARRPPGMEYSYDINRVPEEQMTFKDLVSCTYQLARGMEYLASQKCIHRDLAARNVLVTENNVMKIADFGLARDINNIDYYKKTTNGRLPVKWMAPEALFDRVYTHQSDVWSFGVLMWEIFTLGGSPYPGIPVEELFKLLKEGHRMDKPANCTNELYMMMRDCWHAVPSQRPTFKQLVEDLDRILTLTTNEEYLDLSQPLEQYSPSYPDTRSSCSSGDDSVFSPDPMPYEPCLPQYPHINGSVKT
# UniProt O43318, sequence (whole entry, looked up): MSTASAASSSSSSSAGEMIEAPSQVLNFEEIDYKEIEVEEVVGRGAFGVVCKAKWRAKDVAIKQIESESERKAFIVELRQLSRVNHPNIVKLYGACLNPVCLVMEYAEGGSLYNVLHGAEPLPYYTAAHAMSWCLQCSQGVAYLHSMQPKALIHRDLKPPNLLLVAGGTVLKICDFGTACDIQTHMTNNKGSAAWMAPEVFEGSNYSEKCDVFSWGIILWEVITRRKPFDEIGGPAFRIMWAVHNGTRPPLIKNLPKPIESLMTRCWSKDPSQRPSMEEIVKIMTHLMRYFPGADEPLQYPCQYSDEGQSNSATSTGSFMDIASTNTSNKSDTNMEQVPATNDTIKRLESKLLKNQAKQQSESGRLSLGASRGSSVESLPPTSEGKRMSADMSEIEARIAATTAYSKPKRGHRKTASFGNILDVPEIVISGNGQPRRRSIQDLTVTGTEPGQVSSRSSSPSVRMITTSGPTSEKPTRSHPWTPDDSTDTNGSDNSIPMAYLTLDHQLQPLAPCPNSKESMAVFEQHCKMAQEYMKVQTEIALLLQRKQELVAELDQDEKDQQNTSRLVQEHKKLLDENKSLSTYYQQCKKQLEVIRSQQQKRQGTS
# UniProt P46734, sequence (whole entry, looked up): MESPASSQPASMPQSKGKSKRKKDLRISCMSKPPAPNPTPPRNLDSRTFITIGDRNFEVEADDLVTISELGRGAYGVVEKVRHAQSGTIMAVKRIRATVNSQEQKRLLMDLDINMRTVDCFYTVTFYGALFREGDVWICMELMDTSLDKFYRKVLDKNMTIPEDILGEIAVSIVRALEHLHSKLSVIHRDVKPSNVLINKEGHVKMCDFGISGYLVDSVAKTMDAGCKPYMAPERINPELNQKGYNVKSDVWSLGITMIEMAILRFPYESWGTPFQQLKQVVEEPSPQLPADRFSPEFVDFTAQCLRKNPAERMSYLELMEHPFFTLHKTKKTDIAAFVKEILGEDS

# Set 1
# Target: Calcium/calmodulin-dependent protein kinase type II subunit alpha (CAMK2A, Homo sapiens, UniProt Q9UQM7)
# UniProt Q9UQM7, sequence (whole entry, looked up): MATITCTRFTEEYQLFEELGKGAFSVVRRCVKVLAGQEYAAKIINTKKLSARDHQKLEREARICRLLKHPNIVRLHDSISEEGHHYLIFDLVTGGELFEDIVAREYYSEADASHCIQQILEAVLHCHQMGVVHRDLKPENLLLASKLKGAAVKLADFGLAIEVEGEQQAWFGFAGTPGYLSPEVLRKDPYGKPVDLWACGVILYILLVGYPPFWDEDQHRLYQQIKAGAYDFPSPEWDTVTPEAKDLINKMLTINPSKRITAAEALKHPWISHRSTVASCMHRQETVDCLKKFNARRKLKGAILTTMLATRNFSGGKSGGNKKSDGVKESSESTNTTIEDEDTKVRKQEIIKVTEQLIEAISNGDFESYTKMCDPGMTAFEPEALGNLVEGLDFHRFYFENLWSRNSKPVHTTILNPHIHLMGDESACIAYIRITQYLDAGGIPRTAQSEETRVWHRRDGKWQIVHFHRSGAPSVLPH
# Observed: enzyme activity
# Action: inhibitor
# Concentration: 10 µM
SMILES,inhibition
O=c1[nH]c(=O)n([C@H]2C[C@H](O)[C@@H](CO)O2)cc1/C=C/Br,-5%
COc1ccc(CCO)cc1,-13%
COc1cc2ncnc(Nc3ccc(F)c(Cl)c3)c2cc1OCCN1CC2(CC2)C2(C1)OCCO2,-4%
CC[C@H](Nc1ncnc2nc[nH]c12)c1nc2cccc(F)c2c(=O)n1-c1ccccc1,-9%
Cc1ncc(C[n+]2csc(CCOP(=O)(O)OP(=O)(O)O)c2C)c(N)n1,27%
O=C[C@H](O)[C@@H](O)[C@H](O[C@H]1O[C@H](CO)[C@@H](O[C@H]2O[C@H](CO)[C@@H](O[C@H]3O[C@H](CO)[C@@H](O)[C@H](O)[C@H]3O)[C@H](O)[C@H]2O)[C@H](O)[C@H]1O)[C@H](O)CO,23%
CCOc1ccccc1O[C@H](c1ccccc1)[C@H]1CNCCO1 (racemic),-6%
CC(=O)O[C@H]1CC[C@@]2(C)C(=CC[C@@H]3[C@@H]2CC[C@]2(C)C(c4cccnc4)=CC[C@@H]32)C1,-11%
NC(=O)C[C@H](N)C(=O)O,-13%
NCCCNCCSP(=O)(O)O,-6%
Cc1ccc(N(CC2=NCCN2)c2cccc(O)c2)cc1,0%

# Set 2
# Cell line: mouse MPNST tumor cells
# Method: high-content nuclear imaging
# Refers to: cell number
# Concentration: 10 µM
# Time: 12 h
# Setting: mean of 2 replicates
# Baseline: plate mean
# Direction: higher = more cells
SMILES,nuclei count
CCOC(=O)COc1ccc2c(c1)C[C@@H](NC[C@H](O)c1cccc(Cl)c1)CC2,0.456 z-score
O=C1c2ccccc2-c2c(NCCc3ccccc3)c(=O)[nH]c3cccc1c23,-0.0224 z-score
COc1ccc(OC)c(C(O)CNC(=O)CN)c1 (stereo not shown),1.84 z-score
COc1ccc(C2=N[C@@H](c3ccc(Cl)cc3)[C@@H](c3ccc(Cl)cc3)N2C(=O)N2CCNC(=O)C2)c(OC(C)C)c1,-3.11 z-score and 1.49 z-score
CCCCCN(C)CCC(O)(P(=O)(O)O)P(=O)(O)O,0.521 z-score
Cc1ccsc1C(=CCCN1CCC[C@@H](C(=O)O)C1)c1sccc1C,-0.686 z-score and 1.79 z-score
C=CC(=O)N1C[C@H](Nc2ncnc3[nH]ccc23)CC[C@@H]1C,0.402 z-score
CC(C)c1cc(-c2ccc(F)c3ccccc23)nc(N)n1,2.74 z-score
COc1ccccc1N1CCN(CCCNc2cc(=O)n(C)c(=O)n2C)CC1,1.24 z-score
Cc1cn[nH]c1,1.64 z-score and 1.99 z-score
O=S1(=O)N[C@H]2CCCN2c2ccccc21,1.31 z-score
O=c1cc(CN2CCOCC2)occ1OCCCCCSc1ccnc2cc(C(F)(F)F)ccc12,1.97 z-score
O=C1NC(=NCc2cccs2)S/C1=C\c1ccc2ncccc2c1,-1.93 z-score
CN(C)CCN(Cc1cccs1)c1ccccn1,2.66 z-score
Clc1ccc(C(Cn2ccnc2)OCc2c(Cl)cccc2Cl)c(Cl)c1 (stereo not shown),2.53 z-score

# Set 3
# Target: Testis-specific serine/threonine-protein kinase 1 (TSSK1B, Homo sapiens, UniProt Q9BXA7)
# UniProt Q9BXA7, sequence (whole entry, looked up): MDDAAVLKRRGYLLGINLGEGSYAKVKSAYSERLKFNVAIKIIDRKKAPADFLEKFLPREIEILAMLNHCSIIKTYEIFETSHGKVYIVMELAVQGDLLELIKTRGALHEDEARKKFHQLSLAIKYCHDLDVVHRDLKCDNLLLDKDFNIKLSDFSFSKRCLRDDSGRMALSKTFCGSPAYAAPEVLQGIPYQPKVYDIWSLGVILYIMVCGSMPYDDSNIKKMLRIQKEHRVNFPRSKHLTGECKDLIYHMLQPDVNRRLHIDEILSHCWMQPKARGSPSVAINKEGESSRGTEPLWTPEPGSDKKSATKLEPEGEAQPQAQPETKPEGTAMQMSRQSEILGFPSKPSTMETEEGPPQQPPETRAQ
# Observed: enzyme activity
# Action: inhibitor
# Concentration: 0.5 µM
# Baseline: control
SMILES,remaining activity [%]
COc1ccc(COc2ccc(Cc3cnc(N)nc3N)cc2OC)cc1,95.2
CCCNC(=O)Nc1ccc(Oc2ncnc3cc(OC)c(OC)cc23)cc1Cl,80.4
c1ccc2c(-c3ccncc3)c[nH]c2c1,103
O=C1NC(=O)c2c1c1c3ccccc3[nH]c1n1cncc21,84.4
O=C1Nc2ccc(Br)cc2/C1=C/c1cc2c([nH]1)CCCC2,36.1
Oc1cccc(-c2nc(N3CCOCC3)c3oc4ncccc4c3n2)c1,93.4
O=C(c1cc2cc(O)ccc2[nH]1)c1cc2cc(O)ccc2[nH]1,96.4
O=C1Nc2ccccc2/C1=C\c1c(Cl)[nH]c2ccccc12,101
Cc1cc(Nc2cc(N3CCN(C)CC3)nc(Sc3ccc(NC(=O)C4CC4)cc3)n2)[nH]n1,90.5
O=C1Cc2c([nH]c3ccc(Br)cc23)-c2ccccc2N1,80.4
CN1CCN(c2ccc3nc(-c4c(N)c5c(F)cccc5[nH]c4=O)[nH]c3c2)CC1,54.4
O=c1cc(N2CCOCC2)oc2c(-c3ccccc3)cccc12,101
CN(C)S(=O)(=O)c1ccc2c(c1)/C(=C/c1cc3c([nH]1)CCCC3)C(=O)N2,74.6
CCCCc1c(-c2ccc(OC)cc2)[nH]c2nccnc12,65.3
c1ccc(-c2n[nH]c3c2oc2ccccc23)cc1,97.2
COc1ccc2c(c1)c(C1=C(c3c[nH]c4ccccc34)C(=O)NC1=O)cn2CCCN(C)C,80.3
N#Cc1cnc2cnc(NCc3cccnc3)cc2c1Nc1ccc(F)c(Cl)c1,84.4
Cc1ccc(S(=O)(=O)/C=C/C#N)cc1,97.4
O=C1NC(=O)c2c1c1c3ccccc3[nH]c1c1[nH]c3cc(Br)ccc3c21,86.5
COc1cccc(-c2cc(=O)c3ccccc3o2)c1N,82.4

# Set 4
# Structure (SMILES): C[C@H](c1cccc(C#N)c1)n1cc(Cl)cc(C(N)=O)c1=N
# Observed: cell-free assay
# Method: competition with immobilised ligand
# Concentration: 1 µM
target,remaining binding
"Mitogen-activated protein kinase kinase kinase 5 (MAP3K5, Homo sapiens, UniProt Q99683)",85%
"Tyrosine-protein kinase Fes/Fps (FES, Homo sapiens, UniProt P07332)",53%
"Mitogen-activated protein kinase kinase kinase 7 (MAP3K7, Homo sapiens, UniProt O43318)",77%
"Calcium/calmodulin-dependent protein kinase kinase 2 (CAMKK2, Homo sapiens, UniProt Q96RR4)",100%
"Serine/threonine-protein kinase MARK1 (MARK1, Homo sapiens, UniProt Q9P0L2)",97%
"Cyclin-dependent kinase 4, with cyclin D3 (CDK4, Homo sapiens, UniProt P11802)",96%
"Insulin-like growth factor 1 receptor (IGF1R, Homo sapiens, UniProt P08069)",100%
"Protein kinase C delta type (PRKCD, Homo sapiens, UniProt Q05655)",91%
"Hepatocyte growth factor receptor (MET, Homo sapiens, UniProt P08581)",100%
"Fibroblast growth factor receptor 2 (FGFR2, Homo sapiens, UniProt P21802)",43%
"Tyrosine-protein kinase ABL1, phosphorylated (ABL1, Homo sapiens, UniProt P00519, T315I)",96%
"Proto-oncogene tyrosine-protein kinase ROS (ROS1, Homo sapiens, UniProt P08922)",100%
"Ephrin type-A receptor 1 (EPHA1, Homo sapiens, UniProt P21709)",97%
"Serine/threonine-protein kinase Nek1 (NEK1, Homo sapiens, UniProt Q96PY6)",100%
"Tyrosine-protein kinase Yes (YES1, Homo sapiens, UniProt P07947)",88%
"Ribosomal protein S6 kinase alpha-1, N-terminal kinase domain (RPS6KA1, Homo sapiens, UniProt Q15418)",100%
"Dual specificity mitogen-activated protein kinase kinase 3 (MAP2K3, Homo sapiens, UniProt P46734)",73%
"Angiopoietin-1 receptor (TEK, Homo sapiens, UniProt Q02763)",96%

# For quick reference, copied from above (set 3):
SMILES,remaining activity [%]
CCCNC(=O)Nc1ccc(Oc2ncnc3cc(OC)c(OC)cc23)cc1Cl,80.4
c1ccc2c(-c3ccncc3)c[nH]c2c1,103
O=C1NC(=O)c2c1c1c3ccccc3[nH]c1n1cncc21,84.4
O=C1Nc2ccc(Br)cc2/C1=C/c1cc2c([nH]1)CCCC2,36.1
